Published values gathered from unrelated publications.
Parts stem from different laboratories: compare values within a part only.

Block 1
Target: Phosphate system positive regulatory protein PHO4, full length, GST-tagged (PHO4, Saccharomyces cerevisiae, UniProt P07270, residues 1-312)
Technique: competition protein-binding microarray
Form: double-stranded DNA, one strand shown
Sample: in vitro
Concentration: 2 µM
Setting: whole 60-bp probe, lowest competitor level
With: Cbf1 competitor, 0.05 µM
Direction: higher = stronger binding
Residues (chain): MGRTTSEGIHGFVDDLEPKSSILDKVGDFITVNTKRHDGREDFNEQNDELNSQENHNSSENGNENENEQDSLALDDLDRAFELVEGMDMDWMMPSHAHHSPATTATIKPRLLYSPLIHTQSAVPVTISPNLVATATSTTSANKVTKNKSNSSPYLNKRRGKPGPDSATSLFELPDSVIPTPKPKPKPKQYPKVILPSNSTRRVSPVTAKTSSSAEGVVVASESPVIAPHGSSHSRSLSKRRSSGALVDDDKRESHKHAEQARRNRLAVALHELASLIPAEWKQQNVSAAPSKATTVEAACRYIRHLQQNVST
Oligonucleotide | fluorescence intensity [a.u.]
AGATGAAGCTCTCACCACGCACCATTAAATGTAAACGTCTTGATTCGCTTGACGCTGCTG | 7160
CTTCTGTAAATTTTTCACGTGTACTGACGCGCCCCGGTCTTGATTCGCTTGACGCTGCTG | 11500
CTAACGAAGGTTTTTCACGTGTTATACAAGCCAAGTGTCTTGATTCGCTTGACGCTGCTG | 15000
TGCGCAACAACTTTTCACGTGAGGTTATGTCTAGAAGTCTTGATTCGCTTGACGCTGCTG | 12400
CATACCCAACCTTGGGTAGTGGGTGAAGATATTTGTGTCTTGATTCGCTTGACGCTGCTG | 4490

Block 2
Target: Histone acetyltransferase KAT6A, winged helix 2, GST fusion (KAT6A, Homo sapiens, UniProt Q92794, residues 85-181)
Technique: protein binding microarray
Form: double-stranded DNA, one strand shown
Sample: in vitro
Concentration: not given
Setting: 8-mer, flanks averaged, mean of 2 arrays, mostly near background
Baseline: not given
Direction: higher = stronger binding
Residues (chain): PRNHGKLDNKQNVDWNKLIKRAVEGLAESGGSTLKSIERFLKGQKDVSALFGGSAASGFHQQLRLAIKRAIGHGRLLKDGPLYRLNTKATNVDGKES
Oligonucleotide | E-score
ACTTAGCC | 0.0392
GGCTTAAA | 0.19
CAAAGGAA | -0.0328
CTAGCTGC | -0.0628
TGACCGCA | 0.113

Block 3
Target: Prothrombin, mature alpha-thrombin (F2, Homo sapiens, UniProt P00734)
Technique: aptamer microarray, sandwich
Form: DNA with 2'F-ANA
Sample: in vitro
Concentration: 200 nM
Setting: whole 15-mer aptamer, many near background
With: Cy3 exosite-II aptamer, 400 nM
Direction: higher = stronger binding
Oligonucleotide: GGTTGGTGTGGTTGG
Modification | mean fluorescence intensity [a.u.]
2'F-ANA at 2 3 4 6 9 10 12 15 | 279
2'F-ANA at 2 5 8 9 12 15 | 176
2'F-ANA at 1 4 5 6 8 10 11 12 | 104
2'F-ANA at 2 3 4 7 10 11 12 14 15 | 173
2'F-ANA at 7 8 10 11 13 | 146
2'F-ANA at 1 2 4 5 8 13 14 | 45.9
2'F-ANA at 1 4 5 8 9 12 13 14 15 | 45.5

Other studies, line by line
Substance | target | assay | test system | setting | how to read | quantity | result
PhoQ, residues 284 288 289 292 302 303 SACGEM | PhoP, residues 12 14 15 18 19 NHTVL (Escherichia coli, UniProt P23836) | Sort-seq, measured: YFP reporter | E. coli | PhoQ-PhoP variant library, with: 10 µM Mg2+ | baseline: high Mg2+ state, higher = stronger signaling | fold induction | 1.96
